Published values collected from several papers.
Each numbered part is a random draw from the data of one study; scales do not carry over between parts. Substitutions count along the parent as printed.

Block 1
Target: Sal-like protein 4, full length isoform B (SALL4, Homo sapiens, UniProt Q9UJQ4-2, residues 1-616)
Method: universal PBM
Form: double-stranded DNA, one strand shown
Sample: in vitro
Tested at: not given
Notes: 8-mer, flanks averaged, mean of replicates
Direction: higher = stronger binding
Oligonucleotide | E-score
ACCGGCAA | -0.358
CGGTTTCA | -0.0611
GACCGACA | -0.193
CGTAAAAA | 0.274
CGCACCCA | -0.302
GGGTATTA | 0.15
GTCTTAAC | 0.0502
ACTAAGAA | -0.0139
GAAAGAGA | -0.057
CGAAGAAA | 0.112
GTAGATGA | 0.152
ATACCCGA | -0.117
GCTCCAGC | -0.23
AATGCGAG | 0.142
CCAACGGC | -0.315
ATTTGTAG | 0.267

Block 2
Target: Interferon regulatory factor 5, full length, phosphomimetic (IRF5, Homo sapiens, UniProt Q13568-2, residues 1-514, K96S/S451D/S453D/S456D/S462D)
Method: protein-binding microarray
Form: double-stranded DNA, one strand shown
Sample: in vitro
Tested at: 250 nM
Notes: 60-bp whole probe
Together with: salmon DNA 0.4 mg/ml
Reference: random background probes
Direction: higher = stronger binding
Shared flanks, not repeated: GCCTAGCAC … GTCTTGATTCGCTTGACGCTGCTG
Oligonucleotide | log fluorescence
TCAAGAATGGGGTTTGCAACTGTGCTA | 0.0297 z-score
TTAGATTTCGGTTCCGATTAGTGCTAG | 8.33 z-score
GACGGTTTCGACTATCAGGACGTGCTA | 6.95 z-score
GACGGTATCGGTATGGGGACGTGCTAG | 5.69 z-score
GACGAACTGGGGTATCGAGGCGTGCTA | -0.148 z-score
TCAACTTTGGCATGTCTTACTGTGCTA | -0.0628 z-score
AACCATTTTGGTTTTCTCTAGTGCTAG | 0.871 z-score
GACGGACTGGGCTATCGGGACGTGCTA | -0.155 z-score
TTAGATTTAAGTTCCGATTAGTGCTAG | 1.03 z-score
GACGAACTGAGTCTTGAGACGTGCTAG | -0.343 z-score
GACGGTGTCGGTCTCGGGACGTGCTAG | -0.161 z-score
AACTTTGGTATCTGGCATCTGTGCTAG | 0.623 z-score
TTAGGTGTCGGTTCCGGTTAGTGCTAG | 0.977 z-score
GACGATCTCAGACCGGAGACGTGCTAG | -0.282 z-score
GATGGTCTCCTACTGCTGACGTGCTAG | -0.309 z-score
GACGGTTTCGGCCTGGGGACGTGCTAG | 6.49 z-score

Block 3
Target: CCNB3, cyclin fold, Cln2 fusion (human)
Method: yeast growth competition, sequencing
Sample: yeast
Notes: strong parent motif
Reference: not given
Direction: higher = stronger binding
Parent: PKN2 docking peptide (human); VSAVRKLDFSDTM
Change | normalised enrichment score
K6T | 1.59
S10G | 2.14
L7C | 0.0298
R5P | 0.2
T12L | 1.51
D8A | 0.574
V4N | 0.45
D8V | 1.1
T12R | 1.59
T12I | 1.71
L7P | -0.0766
D11L | 2.04
L7Q | 0.0848
V4F | 1.03
L7D | -0.325
D11S | 2.07
S2N | 1.74
D8I | 0.703
S2I | 1.48
S10A | 1.32
D11I | 2.05
D11F | 1.27
V4Y | 0.242
L7A | -0.11
D8C | 0.891

Block 4
Target: ABI1, truncated, D143A, DHFR fusion (Arabidopsis thaliana)
Method: DHFR PCA, deep sequencing
Sample: yeast
Notes: methotrexate growth selection, single substitutions
Together with: (+)-ABA 17 µM
Reference: wild-type fitted maximum
Direction: higher = stronger binding
Parent: PYL1, truncated, DHFR fusion (Arabidopsis thaliana); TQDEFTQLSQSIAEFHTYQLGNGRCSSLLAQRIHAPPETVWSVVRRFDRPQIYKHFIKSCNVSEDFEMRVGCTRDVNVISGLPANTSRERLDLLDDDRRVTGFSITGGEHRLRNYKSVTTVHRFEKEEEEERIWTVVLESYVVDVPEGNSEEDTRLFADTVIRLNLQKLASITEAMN
Change | relative binding score
W134G | 87.6%
E14A | 65%
S117C | 22.6%
T135L | -4.09%
Q19W | 55.2%
S11H | 80.5%
C72S | 81.5%
H55M | 93.2%
L156N | 73%
Y53P | -6.52%
A30C | 83.1%
F103R | -13.5%
S59N | 82.4%
E130G | 88.5%
H122Q | 21.3%
I33V | 70%
E109W | 14.5%
Q31I | 45.4%
S87I | 9.09%
R123H | 86.5%
D97K | 99.9%
F66T | 71.3%
S26R | 54.2%
G21E | 86.8%

Block 5
Target: CREBL2, bZIP domain (human)
Method: DHFR protein complementation
Sample: yeast
Notes: single substitutions, most at no-binding floor
Reference: wild-type JUN-FOS pair
Direction: higher = stronger binding
Parent: JUN, bZIP domain (human); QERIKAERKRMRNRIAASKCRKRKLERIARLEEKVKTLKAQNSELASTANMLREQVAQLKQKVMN; partner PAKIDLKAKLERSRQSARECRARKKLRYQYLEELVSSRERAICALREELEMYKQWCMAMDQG
Change | binding fitness [natural log]
L52W | -1.46
R53V | -1.51
T37D | -1.51
L59P | -1.5
E32I | -1.46
E54P | -1.54
A29G | -1.46
S47M | -1.22
A40T | -1.54
Q41R | -1.36
V56L | -1.42
T37N | -1.2
A49K | -1.47
V35A | -1.53
N42W | -1.56
T37L | -1.4
A40P | -1.54
L31Y | -1.44
R53T | -1.51
T37A | -1.34
S43M | -1.52

Block 6
Target: RING finger protein unkempt homolog, zinc fingers 1-6, GST-SBP tag (UNK, Homo sapiens, UniProt Q9C0B0, residues 30-357)
Method: RNA Bind-n-Seq
Form: RNA
Sample: in vitro
Tested at: not given
Notes: RNA with constant flanks, ends assumed
Reference: input RNA pool
Direction: higher = stronger binding
Shared flanks, not repeated: GGGAGUUCUACAGUCCGACGAUC … CAACAGAGGAUUGAGCAUCA
Residues (chain): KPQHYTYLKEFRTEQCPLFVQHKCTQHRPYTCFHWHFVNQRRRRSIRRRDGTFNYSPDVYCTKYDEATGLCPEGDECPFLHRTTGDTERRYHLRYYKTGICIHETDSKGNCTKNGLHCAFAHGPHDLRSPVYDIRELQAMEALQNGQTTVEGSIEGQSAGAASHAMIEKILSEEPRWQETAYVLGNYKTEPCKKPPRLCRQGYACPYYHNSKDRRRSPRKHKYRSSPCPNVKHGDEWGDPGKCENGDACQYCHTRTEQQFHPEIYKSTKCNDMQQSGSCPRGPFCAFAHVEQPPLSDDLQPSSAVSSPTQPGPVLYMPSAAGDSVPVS
Oligonucleotide | bound/input enrichment [ratio]
AGGGCCUCCAACAGGCAAAUUCAGGGAGGAUAGGUUUCAGGGAAUAUAAAUUUAUUUAAUAUCCGUGGUCUUUAAGUAUAAACUUGAUGUAAUUGGUUUGGGAGGGGGCAGUGAUGAUGA | 0.741
CUUCUGAAGGCAGCUGCAGGUCCAUCCCAUUGACAUAGCUGCUAUGGCACAGGAGCUUUGCCGCUGUGGAACCAACACUGCUUUUGCAUACUGUGUAGAAGAAUUCUUUAGGAGUGGGGA | 0.471
UUUGACAAGGAUGGGAAUGGUUACAUCAGUGCGGCAGAACUGCGCCACGUCAUGACAAACUCCGGAGAAAAGCUAACAGAUGAAGAAGUAGAUGAAAUGAUCAGAGAAGCAGAUAUUGAU | 0.581
CUGAAAUCUGUGGAGAGCACAUCUCCAGAGCCAUCAAAGAUCAUGUUGGUAGAGCCCCCAGCCGCAAAAGUGUUAGAGCCUUCAGAAACCCUUGUGGUAUCAUCAGAGACACCUACUGAG | 0.0616
GAUGUCACUCAAGAGCAGCUGGGUGGUGCCAAGACCCACACCACUGUGUCAGGUGUGGCCCACCGAGCUUUCGACAAUGAUGUUGAUGCUCUGUGUAACCUGCGUGAAUUCUUCAAUUUC | 0.0802
UUGUCUAGCAAAUAAAAGAUGUUAAUAUAUUCCUGUUACUGGCAUGUGCACGACUAUGUUAUCCGAAGCCACUUUAUCAUUUUCCUGCUUUAAAUAGAAAUGUCUAUUUAUGAAUUCUGC | 1.36
CAAAAAAUGGUGCCUCCGGAUGCUCCUUCUUCUGUGAGCACAGGCUCCCCUCAGCCCCCCCGCUUCACCUAUGCUCAGCAGAAGGAGAAGCCCCUAGUUCAAGAGAAGCAGCACCCACAG | 0.647
AAGUCUCAUUCGCCUUUGUCUUGUACUUCUGUGUUCAUUUUUUUUUUUUUUUUUGGCCCGAGUUUCCACUAUCCCAAUCAAAGAAUUACAGUACACAUCCCCAGAAUCCAUAAAUGUGUU | 0.343
AAUGUCAUUGAUGCCAAUUUCUGUAUGAAAGGAGAAGACUUGGACUCUCAGGUUGGAGUUACCGAUUUUUCAAUGUAUCUCAAGGACGGGAACAGCAGUAAAGGUACUGAAGGAGACGGU | 0.192
AAAGGUUUCCUGCUACAGGAGGGGAGAAAGCUGUGCAGUCUCUUGGGAAAGGACUUUUCCCUCCGAGUGGGCCUCGGGGCUGCACUCCAGAGUUGUGGCAAUCUGCCUAAGUUUCCAAAC | 0.108
CCAUCGUCAACUCACACCAUUCCAUUCUAUCCCAACCCCUUGCACCCUAGGCCAUUUCCCCGCUCCCGCCUUCCUCCAGGAAUUAUCGGGGGUGAAUAUGACCAAAGACCAACACUUCCC | 0.283

Single results of other studies
Molecule | partner | method | sample | together with | measurement | result
EIF4A3 (Homo sapiens, UniProt P38919) | PNN (Homo sapiens, UniProt Q9H307) | cross-linking MS | cell fractions | DMTMM | cross-linked residues | K374 to E159

For quick reference, copied from above (block 1):
Oligonucleotide | E-score
GAAAGAGA | -0.057
ATTTGTAG | 0.267
ATACCCGA | -0.117
CGTAAAAA | 0.274
GTCTTAAC | 0.0502
GGGTATTA | 0.15
ACCGGCAA | -0.358
AATGCGAG | 0.142
CCAACGGC | -0.315
CGAAGAAA | 0.112
CGGTTTCA | -0.0611
